Assay results pooled from the literature.
Each line is one published result; not all experiments were run side by side. Several values in a cell are separate wells, animals, samples, runs or records. ± marks the error that the study gave. ≈ marks a conversion by molar mass, not a printed value.

SMILES	organism	test	system	conditions	how to read	measurement	value
CC(=O)Nc1cccc(CNC(=O)c2cnc3ccccc3c2C(F)(F)F)c1	Drosophila melanogaster	larval locomotor rescue	APP Alzheimer model third-instar larvae	oral in food, dose not given		effective concentration	≥ 1 µM
CC1C=CC=CC(C)C2C=CC3CC(C)(O)C(Cl)C(C)C3C2C(=O)C(Cl)(Cl)C(=O)C(C)C(=O)O1 (centres unmarked)	Staphylococcus aureus		MSSA and MRSA clinical isolates			MIC50	0.1 µg/mL (≈ 0.188 µM)
CC(C)C[C@@H]1NC(=O)[C@H](CCCCN)NC(=O)[C@H](C(C)C)NC(=O)[C@@H]2CCCN2C(=O)[C@@H](Cc2ccc(O)cc2)NC(=O)[C@H](CC(C)C)NC(=O)[C@H](CCCCN)NC(=O)[C@H](C(C)C)NC(=O)[C@H](CCCCN)NC(=O)[C@@H]2CCCN2C(=O)[C@@H](Cc2ccc(O)cc2)NC1=O	Gram-positive bacteria			24 h, 7 strains		MIC geometric mean	3.3 µg/mL (≈ 2.48 µM)
O=[N+]([O-])c1ccc(/C=N/N=C/c2ccc(O)cc2)s1	Trypanosoma evansi	parasite growth, CellTiter-Glo	Tansui bloodstream form	72 h		IC50	0.61 ± 0.02 µM
CC[C@H](C)[C@H](NC(=O)[C@H](CCCN)NC(=O)[C@H](CC(N)=O)NC(=O)[C@H](CC(C)C)NC(=O)[C@H](Cc1ccccc1)NC(=O)[C@H](CCCN)NC(=O)[C@H](CCCNC(=N)N)NC(=O)[C@H](CC(C)C)NC(=O)[C@H](CC(C)C)NC(=O)[C@H](CCCN)NC(=O)[C@H](CCCNC(=N)N)NC(=O)[C@H](CC(C)C)NC(=O)CNC(C)=O)C(=O)N[C@@H](CCCN)C(=O)N[C@@H](CCCNC(=N)N)C(N)=O	Gram-positive bacteria					geometric mean MIC	3.13 µM
CC(C)C[C@@H]1NC(=O)[C@H](CCCCN)NC(=O)[C@H](C(C)C)NC(=O)[C@@H]2CCCN2C(=O)[C@@H](Cc2ccc(O)cc2)NC(=O)[C@H](CC(C)C)NC(=O)[C@H](CCCCN)NC(=O)[C@H](C(C)C)NC(=O)[C@H](CCCCN)NC(=O)[C@H](CC(C)C)NC(=O)[C@H](CCCCN)NC(=O)[C@@H]2CCCN2C(=O)[C@@H](Cc2ccc(O)cc2)NC(=O)[C@H](CCCCN)NC(=O)[C@H](CCCCN)NC1=O	Gram-positive bacteria			24 h, 7 strains		MIC geometric mean	5.9 µg/mL (≈ 3.23 µM)
Fc1ccc2c(c1)c1nc3ccc(Br)cc3c-1cn2Cc1cn(-c2ccccc2I)nn1	Giardia duodenalis	UHPLC-Q-TOF-MS, measured: PC(15:0/0:0)	trophozoites	IC50, 0.1525 h	baseline: 0.25% DMSO	fold change	3.09
O=[N+]([O-])c1ccc(/C=N/N=C/c2ccccc2)o1	Trypanosoma brucei gambiense	parasite growth, CellTiter-Glo	IL1922 bloodstream form	72 h		IC50	4 ± 1.11 µM
Cc1ncc([N+](=O)[O-])n1CCOCc1nnc(SCC(=O)c2ccc(Cl)cc2)o1	viridans streptococci		DMSO	60 µg/mL, 24 h, 37 °C		inhibition zone diameter	≥ 20 mm
Cc1ccc(/C=N/N=C/c2ccc([N+](=O)[O-])o2)cc1	Trypanosoma evansi	parasite growth, CellTiter-Glo	Tansui bloodstream form	72 h		IC50	5.43 ± 1.08 µM
CN[C@H](CC(C)C)C(=O)N[C@H]1C(=O)N[C@@H](CC(N)=O)C(=O)N[C@H]2C(=O)N[C@H]3C(=O)N[C@H](C(=O)N[C@H](C(=O)O)c4cc(O)cc(O)c4-c4cc3ccc4O)[C@H](O)c3ccc(c(Cl)c3)Oc3cc2cc(c3O[C@@H]2O[C@H](CO)[C@@H](O)[C@H](O)[C@H]2O[C@H]2C[C@](C)(NCc3ccc(C(=O)OCCCCCCN(Cc4ccccn4)Cc4ccccn4)cc3)[C@H](O)[C@H](C)O2)Oc2ccc(cc2Cl)[C@H]1O	Bacillus subtilis	protein synthesis, measured: LiaH.3	168	concentration not given, 10 min, at peak effective concentration	baseline: untreated	regulation factor	45.7 ± 9.98
CC(C)C[C@H](NC(=O)OCc1ccccc1)C(=O)N[C@@H](C[C@@H]1CCNC1=O)C(O)S(=O)(=O)[O-].[Na+] (some centres unmarked)	Coxsackievirus A10	plaque	RD	5 µM, 1 h, 37 °C	baseline: DMSO	viral entry	no effect
CCCCSc1cccc(O)c(=O)c1O	Hepatitis B virus	viral replication, inhibitor	HepDES19			EC50	47 µM
O=C1CC(c2ccc(O)cc2)Oc2cc(O)cc([O][Ga+][O]c3cc(O)cc4c3C(=O)CC(c3ccc(O)cc3)O4)c21 (centres unmarked)	Pseudomonas aeruginosa			40 µM, 2 days, 48 h-old biofilm		biofilm eradication	~50%
O=C(Nc1ccccc1Nc1ccccc1)c1cccnc1C(F)(F)F	Botrytis cinerea	microbial growth		50 µg/mL		inhibition	33.8%
CC[C@H](C)[C@H](NC(=O)CNC(=O)CNC(=O)[C@H](CO)NC(=O)[C@@H](NC(=O)[C@H](CCCCN)NC(=O)[C@H](CO)NC(=O)[C@@H](N)CC(C)C)[C@@H](C)CC)C(=O)NCC(=O)N1CCC[C@H]1C(=O)N[C@@H](CC(C)C)C(=O)N[C@H](C(=O)N[C@H](C(=O)N1CCC[C@H]1C(=O)N[C@H](C(N)=O)C(C)C)[C@@H](C)CC)C(C)C	Clostridioides difficile		Caco-2	concentration not given		reduction of proinflammatory cytokines	< 20%
CCCCCCSc1ccc(SCCCCCC)c(O)c(=O)c1O	Cryptococcus neoformans	microbial growth, broth dilution		13 h		MIC80	7 µM (≈ 2.59 µg/mL)
COc1ccc(-c2nc(-c3ccccc3OC)[nH]c2-c2ccc(OC)cc2)cc1	Schistosoma mansoni		adult male worms	50 µM		worm killing	0%
CC(C)C[C@@H]1NC(=O)[C@H](CCCCN)NC(=O)[C@H](C(C)C)NC(=O)[C@@H]2CCCN2C(=O)[C@@H](Cc2ccc(O)cc2)NC(=O)[C@H](CC(C)C)NC(=O)[C@H](CCCCN)NC(=O)[C@H](C(C)C)NC(=O)[C@H](CCCCN)NC(=O)[C@H](CC(C)C)NC(=O)[C@@H]2CCCN2C(=O)[C@@H](Cc2ccc(O)cc2)NC(=O)[C@H](C(C)C)NC1=O	Gram-positive bacteria			24 h, 7 strains		MIC geometric mean	1.8 µg/mL (≈ 1.17 µM)

SMILES	organism	test	system	conditions	how to read	measurement	value
Oc1c(Br)cc(Br)c2nc3c(C(F)(F)F)cc(C(F)(F)F)cc3nc12	Staphylococcus aureus	Calgary Biofilm Device	MRSA 1			MBC	0.39 µM (≈ 0.191 µg/mL)
CC(=O)N[C@H](CCCNC(=N)N)C(=O)N[C@H](CCCNC(=N)N)C(=O)N[C@H](CCCNC(=N)N)C(=O)N[C@H](CCCNC(=N)N)C(=O)N[C@H](CCCNC(=N)N)C(=O)N[C@H](CCCNC(=N)N)C(=O)N[C@H](CCCNC(=N)N)C(=O)N[C@H](CCCNC(=N)N)C(=O)N[C@H](CCCNC(=N)N)C(N)=O	HIV-1	viral replication, p24 level	human PBMC, NL4-3	concentration not given		inhibition	85% and > 95%
O=c1c(O)cccc(Sc2ccccc2)c1O	Hepatitis B virus	viral replication, inhibitor	HepDES19			EC50	47 µM
NC(CNC(CNC(CC(=O)O)C(=O)O)C(=O)O)C(=O)O (centres unmarked)	Enterobacteriaceae, Acinetobacter, Pseudomonas	inhibitor	NDM-positive clinical isolates	8 µg/mL, together with: meropenem 2 µg/mL		isolates with restored meropenem susceptibility	88%
CC[C@H](C)[C@H](NC(=O)[C@@H](C)NC)C(=O)N1CC[C@@H]2Oc3ccc(OC)c(c3)/C=C\NC(=O)[C@H](C(C)C)NC(=O)[C@H]21	porcine epidemic diarrhea virus		Vero cells		baseline: CC50 over EC50	selectivity index	> 30
COc1ncccc1C(=O)Nc1ccccc1Nc1ccccc1	Botrytis cinerea	microbial growth		50 µg/mL		inhibition	36.5%
Oc1ccccc1/C=N/NC(=S)Nc1cc(C(F)(F)F)cc(C(F)(F)F)c1	Candidozyma auris	broth microdilution	922		baseline: hit compound	MIC fold improvement	256 fold
CC1(C)S[C@@H]2[C@H](NC(=O)[C@H](NC(=O)C3=C(O)C(c4ccccc4F)NC3=O)c3ccccc3)C(=O)N2[C@H]1C(=O)O (some centres unmarked)	Escherichia coli	broth microdilution	BW25113, Mueller-Hinton broth	18 h, without clavulanic acid		MIC	12.5 µg/mL
c1ccc(-c2nc(-c3ccc4ccccc4c3)c[nH]2)cc1	Schistosoma mansoni		adult male worms	10 µM		worm killing	0%
C#CCN1CCc2c(n(C(=C)C(=O)OC)c3ccccc23)C(C(=O)OC)C1 (centres unmarked)	Hepatitis B virus	viral replication, inhibitor, qPCR	HePAD38	5 µM		inhibition	> 95%
O=[N+]([O-])c1ccc(/C=N/N=C/c2ccc(F)cc2)s1	Trypanosoma brucei gambiense	parasite growth, CellTiter-Glo	IL1922 bloodstream form	72 h		IC50	0.57 ± 0.08 µM
CC[C@H](C)[C@H](NC(=O)[C@H](CCCN)NC(=O)[C@H](CC(N)=O)NC(=O)[C@H](CC(C)C)NC(=O)[C@H](Cc1ccccc1)NC(=O)[C@H](CCCN)NC(=O)[C@H](CCCCNC(=N)N)NC(=O)[C@H](CC(C)C)NC(=O)[C@H](CC(C)C)NC(=O)[C@H](CCCN)NC(=O)[C@H](CCCCNC(=N)N)NC(=O)[C@H](CC(C)C)NC(=O)CNC(C)=O)C(=O)N[C@@H](CCCN)C(=O)N[C@@H](CCCCNC(=N)N)C(N)=O	Gram-positive bacteria					geometric mean MIC	3.13 µM
Cc1ncc([N+](=O)[O-])n1CCOCc1nnc(SCC(=O)c2ccc(Br)cc2)o1	viridans streptococci		DMSO	60 µg/mL, 24 h, 37 °C		inhibition zone diameter	15 to 20 mm
Cc1ccc(/C=N/N=C/c2ccc([N+](=O)[O-])s2)cc1	Trypanosoma brucei gambiense	parasite growth, CellTiter-Glo	IL1922 bloodstream form	72 h		IC50	2.5 ± 0.81 µM
CSc1ccc(SC)c(O)c(=O)c1O	Cryptococcus neoformans	microbial growth, broth dilution		13 h		MIC80	38 µM (≈ 8.75 µg/mL)
C=C(C)[C@@H]1CC[C@]2(C(N)=O)CC[C@]3(C)[C@H](CC[C@@H]4[C@@]5(C)CCCNC(C)(C)[C@@H]5CC[C@]43C)[C@@H]12	Human alphaherpesvirus 1		HFF, E-377		baseline: CC50 over EC50	selectivity index	< 2
Cc1ccc(Sc2cccc(O)c(=O)c2O)cc1	Cryptococcus neoformans	microbial growth, broth dilution		13 h		MIC80	1.7 µM (≈ 0.443 µg/mL)
CC[C@H](C)[C@H](NC(=O)[C@H](CC(C)C)NC(=O)[C@@H](N)CS)C(=O)N[C@@H](CCC(=O)O)C(=O)N[C@@H](Cc1ccc(O)cc1)C(=O)NCC(=O)NCC(=O)N[C@@H](C)C(=O)N[C@@H](CC(=O)O)C(=O)N[C@@H](Cc1ccc(O)cc1)C(=O)N[C@@H](CCCCN)C(=O)N[C@H](C(=O)N[C@H](C(=O)N[C@@H](CC(N)=O)C(=O)N[C@@H](CC(C)C)C(=O)N[C@@H](CCCCN)C(=O)O)[C@@H](C)CC)[C@@H](C)O	infectious bursal disease virus	ELISA, measured: secreted IgM	DT40 cells, IBDV-infected, culture supernatant	50 to 100 nM, 12 h	baseline: IBDV-infected untreated	IgM level	increased
COc1ccc(S(=O)(=O)NCc2c[nH]nc2-c2cccs2)cc1	Plasmodium vivax	reinvasion	2, human, human red blood cells	1× EC50, 20 h		parasitemia	0.5 ± 1.1%

For quick reference, copied from above:
SMILES	organism	test	system	conditions	how to read	measurement	value
CC[C@H](C)[C@H](NC(=O)CNC(=O)CNC(=O)[C@H](CO)NC(=O)[C@@H](NC(=O)[C@H](CCCCN)NC(=O)[C@H](CO)NC(=O)[C@@H](N)CC(C)C)[C@@H](C)CC)C(=O)NCC(=O)N1CCC[C@H]1C(=O)N[C@@H](CC(C)C)C(=O)N[C@H](C(=O)N[C@H](C(=O)N1CCC[C@H]1C(=O)N[C@H](C(N)=O)C(C)C)[C@@H](C)CC)C(C)C	Clostridioides difficile		Caco-2	concentration not given		reduction of proinflammatory cytokines	< 20%
CCCCCCSc1ccc(SCCCCCC)c(O)c(=O)c1O	Cryptococcus neoformans	microbial growth, broth dilution		13 h		MIC80	7 µM (≈ 2.59 µg/mL)
COc1ccc(-c2nc(-c3ccccc3OC)[nH]c2-c2ccc(OC)cc2)cc1	Schistosoma mansoni		adult male worms	50 µM		worm killing	0%
CC(C)C[C@@H]1NC(=O)[C@H](CCCCN)NC(=O)[C@H](C(C)C)NC(=O)[C@@H]2CCCN2C(=O)[C@@H](Cc2ccc(O)cc2)NC(=O)[C@H](CC(C)C)NC(=O)[C@H](CCCCN)NC(=O)[C@H](C(C)C)NC(=O)[C@H](CCCCN)NC(=O)[C@H](CC(C)C)NC(=O)[C@@H]2CCCN2C(=O)[C@@H](Cc2ccc(O)cc2)NC(=O)[C@H](C(C)C)NC1=O	Gram-positive bacteria			24 h, 7 strains		MIC geometric mean	1.8 µg/mL (≈ 1.17 µM)
Oc1c(Br)cc(Br)c2nc3c(C(F)(F)F)cc(C(F)(F)F)cc3nc12	Staphylococcus aureus	Calgary Biofilm Device	MRSA 1			MBC	0.39 µM (≈ 0.191 µg/mL)
